Results gathered from unrelated publications.
A part holds a random share of what one study measured. Changes are numbered by the printed parent chain.

Set 1
Target: Interferon regulatory factor 5, full length, phosphomimetic (IRF5, Homo sapiens, UniProt Q13568-2, residues 1-514, K96S/S451D/S453D/S456D/S462D)
Method: protein-binding microarray
Molecule type: double-stranded DNA, one strand shown
Matrix: in vitro
Tested at: 250 nM
Notes: 60-bp whole probe
Together with: salmon DNA 0.4 mg/ml
Baseline: random background probes
Reading: higher = stronger binding
All sequences stand within: GCCTAGCAC … GTCTTGATTCGCTTGACGCTGCTG
| Strand | log fluorescence [z-score] |
| --- | --- |
| CCATCTCTGCTCCTTCTGACAGTGCTA | 0.0244 |
| GACGATAGCGGGTATCGAGACGTGCTA | 0.783 |
| TTAGGGTTCCTTATCCTTTAGTGCTAG | -0.33 |
| CCTCACTTCCTTCTGCCTGTGTGCTAG | 0.296 |
| GACGAACTGGGATTTCGAGACGTGCTA | 0.0187 |
| CTTTAACTTATTCTCTACTTGTGCTAG | 0.786 |
| GACGGACTGGGGTGTCGGGACGTGCTA | -0.531 |
| TCATTTTTTTTTGTATTACTGTGCTAG | 1.52 |
| TCAAGGTTCAAGTTTACCACTGTGCTA | -0.16 |
| TTAGGTTTCAACTTTCGGTTAGTGCTA | 9.68 |
| TTGTATCTGGGTTCCCCCCCGTGCTAG | 0.679 |
| CTAGGACTGGACACTGGGTTAGTGCTA | -0.702 |
| GACGATATCAGTCCCGAGACGTGCTAG | 0.792 |
| GACAATTTCAGTATCGAGACGTGCTAG | 5.08 |
| TTAGATTTCAGTGCCGATTAGTGCTAG | 1.31 |
| GACGGACTGCATATCCTGACGTGCTAG | -0.489 |
| GACGAACTGGGGACTGGAGATGTGCTA | -0.417 |
| TTAGGTATCGGACTGGGTAAGTGCTAG | 1.56 |
| TTAGAACTGGGGTTTCAATTAGTGCTA | 0.546 |
| TGAGAACTGAGTTTCGATTAGTGCTAG | 9.2 |

Set 2
Target: Sal-like protein 4, full length isoform B (SALL4, Homo sapiens, UniProt Q9UJQ4-2, residues 1-616)
Method: universal PBM
Molecule type: double-stranded DNA, one strand shown
Matrix: in vitro
Tested at: not given
Notes: 8-mer, flanks averaged, mean of replicates
Reading: higher = stronger binding
| Strand | E-score |
| --- | --- |
| AATTCCTA | 0.0996 |
| CACCGGTA | -0.222 |
| ACCGACGT | -0.125 |
| CAGCCCTG | -0.313 |
| AGCTTCCT | 0.0253 |
| AATGGAAT | 0.124 |
| CTTGGAAA | -0.0211 |
| CATGGCCG | -0.289 |
| AAGATCCC | -0.0908 |
| CACCCGGA | -0.285 |
| GACACAAA | 0.0604 |
| CATGCAAC | 0.107 |
| CCGCGCTC | -0.203 |
| ATGCTCTA | 0.00516 |
| CCTTTAAA | 0.0365 |
| AGTCCACG | -0.203 |
| AACTCGCA | 0.0251 |
| GATATTCA | 0.203 |
| GTACCAGA | 0.0405 |
| ACCCCCTC | -0.0988 |
| CCAGTTAA | 0.11 |
| CGGAACCA | -0.261 |
| CGCTACCA | -0.192 |
| AACTGCAG | -0.112 |
| GGGAGTTA | -0.017 |

Set 3
Target: RNA binding protein fox-1 homolog 2, RRM domain, GST-SBP tag (RBFOX2, Homo sapiens, UniProt O43251-10, residues 100-194)
Method: RNA Bind-n-Seq
Molecule type: RNA
Matrix: in vitro
Tested at: 365 nM
Notes: natural RNA segment, single round, ends assumed
Baseline: no-protein control
Reading: higher = stronger binding
Target sequence (chain): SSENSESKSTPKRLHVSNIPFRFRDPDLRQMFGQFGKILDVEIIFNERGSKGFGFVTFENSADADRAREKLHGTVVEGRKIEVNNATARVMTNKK
| Strand | RBNS enrichment (R) |
| --- | --- |
| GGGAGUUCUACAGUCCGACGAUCUGAGUACAGCAGGCAAAAGCCCAUACCAGGCAGCAUGUUGUGGAUGGUUUAGUUCUCCCCGCCUCCCUGUUUCUUGGAAAAGCUACAGGGUCCCUGUAGGGCAAAAUUCCUGGAAUUCUCGGGUGCCAA | 1.58 |
| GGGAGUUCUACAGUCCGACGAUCGGGACAGGCCUCAGUCCCUAGAGGUGUGUUUAAGCUUGUUGGGCAAGAGCUGGAUGCGGAUCUUCGGAAGGGCGGUGGGUAUCCCGAGUUCUCAGGAAUCCGACUGUAGAUGGAAUUCUCGGGUGCCAA | 0.825 |
| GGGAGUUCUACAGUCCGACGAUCUCCAGAAUUUGAGUCCUGUUAAUGUAGUAGAAAAAAAAAAAAGAAAUUUUCUUUUUCUUUUGUGCUGGUCUUGCAAGUUUGUCUACCAGUAAGAGAGCAAAGUUUCCUUCUGGAAUUCUCGGGUGCCAA | 1.64 |
| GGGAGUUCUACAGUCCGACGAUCGCUCCCAGUUUUCCAGUUUGAGGUUCGUAGAACAAUGUCAAGUGGCAAAAUGAAGUUGGUGGACUCCGCCUUAAUGAGAAAGGCUUAGAGCAGUUAUGAGGUGCUGUUAUUGGAAUUCUCGGGUGCCAA | 0.921 |
| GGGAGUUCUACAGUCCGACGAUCUUGGGUCAAUAUUGACUGAUCAGUAGUAGGUCUUUUACCAUUCUGGACAUAAGUCUAGGUGUAGAAAUCCUUUCCUUUAUCAUAGAGGAUAUGGUUUACAUUACCGUUUGUGGAAUUCUCGGGUGCCAA | 0.357 |
| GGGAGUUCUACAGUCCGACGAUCAAAUCUGUGAUAAAAAGAAAGACUAAAGAAAUUUUCCUAAAGGACCCCAUCAUUUAAAAAAUGGACCUGAUAAUAUGAAGCAUCUUCCUUGUAAUUGUCUCUGACCUUUUUGGAAUUCUCGGGUGCCAA | 0.492 |
| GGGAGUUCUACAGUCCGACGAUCGGGCAUCCCUGAGCUAAUCCCCACCCUCCAGUACAUUCCUAGGUCCUGGUCAUUUAGUUCAGAACAGGUGUCCUUUCUCUGUGACCAAACUUACUUUCUCUAAAAUUCCUUGGAAUUCUCGGGUGCCAA | 0.26 |
| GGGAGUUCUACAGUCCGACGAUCCAAAUUUCUGUGUUUUUUGUUUGUUUGUUUGUUUGUUUUUUCUUUGGGAACUGAAGUCAGAGGCACGAACACUAACUCUUAGCAUUUUUCUGUAGACUUUUUCUUCUGGCUGGAAUUCUCGGGUGCCAA | 1.29 |
| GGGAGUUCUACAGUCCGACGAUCUUUUUAAAAAGUGUUAAGAGUGUCUGUCUGUCUGUCUGUCUGUCUGUCUGUCUGUACGUUUAAUUGAUAGCACCUCUGCCGUGUGUCAUCAACUACUAGACAGCCAGGCUUGGAAUUCUCGGGUGCCAA | 0.456 |
| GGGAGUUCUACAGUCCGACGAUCGGAGUCAACAGAGUCACUGGGAACUGAGGCAGGAGUAUCAUCUGUGGGAGCUGGCUGCCCCACCCACACUCUCCAUCCCAUUCAAGACUGUGCCAUACCAGCUGAUCUGUUGGAAUUCUCGGGUGCCAA | 0.644 |
| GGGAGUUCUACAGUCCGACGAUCUCCCCUCUUGCCCCAACCCCCAGCACCCGGGCUCAGGGACCACAGCAAGGCACCUGCAGGUUGGGCCAUACUGGCCUCGCCUGGCCUGAGGUCUCGCUGAUGCUGGGCUGUGGAAUUCUCGGGUGCCAA | 0.2 |
| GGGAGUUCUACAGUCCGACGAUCAACAUUUGAUCUAGCAGCAGGGAUGAGAGGAAAGCAGAAAUGAAUGAACUGUGAAAGCUCCUGUUUUUAUUAUCAAAAAGGACACUGUCAAGAAGGCGCCCCCUGCCCCCUGGAAUUCUCGGGUGCCAA | 2.15 |

Set 4
Target: ABI1, truncated, D143A, DHFR fusion (Arabidopsis thaliana)
Method: DHFR PCA, deep sequencing
Matrix: yeast
Notes: methotrexate growth selection, single substitutions
Together with: (+)-ABA 0.11 µM
Baseline: wild-type fitted maximum
Reading: higher = stronger binding
Parent: PYL1, truncated, DHFR fusion (Arabidopsis thaliana); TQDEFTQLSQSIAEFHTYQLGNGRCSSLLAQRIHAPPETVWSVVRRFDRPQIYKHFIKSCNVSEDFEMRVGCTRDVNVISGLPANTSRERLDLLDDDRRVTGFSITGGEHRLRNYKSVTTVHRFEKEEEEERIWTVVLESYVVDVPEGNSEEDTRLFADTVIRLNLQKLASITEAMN
| Change | relative binding score |
| --- | --- |
| D144W | -8.94% |
| S150Q | 12.8% |
| E139A | 10.1% |
| E4H | 14.7% |
| E14Y | 0.123% |
| T173K | -0.992% |
| N149C | 65.9% |
| S11E | 52.3% |
| E125A | 43.3% |
| Q19Y | 4.92% |
| F15L | 2.97% |
| Q31F | -2.13% |
| S42G | 21.5% |
| F47K | -6.02% |
| L28D | -1.58% |
| C72T | 10% |
| D95W | -11% |
| T160N | 1.39% |
| E152C | 2.2% |
| D95Y | -7.26% |

Set 5
Target: CCND2, cyclin fold, Cln2 fusion (human)
Method: yeast growth competition, sequencing
Matrix: yeast
Notes: weak parent motif
Baseline: not given
Reading: higher = stronger binding
Parent: RBL2 docking peptide (human); STTRRRLFVENDS; partner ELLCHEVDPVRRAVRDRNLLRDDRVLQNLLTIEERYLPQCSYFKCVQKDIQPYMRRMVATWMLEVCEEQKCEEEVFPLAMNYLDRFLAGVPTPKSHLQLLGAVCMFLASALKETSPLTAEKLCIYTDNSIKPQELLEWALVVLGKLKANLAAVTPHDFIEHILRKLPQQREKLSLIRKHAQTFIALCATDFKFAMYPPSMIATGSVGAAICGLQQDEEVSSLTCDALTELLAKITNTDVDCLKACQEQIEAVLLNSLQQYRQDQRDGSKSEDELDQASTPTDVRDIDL
| Change | normalised enrichment score |
| --- | --- |
| STTRRRLFHENDS [V9H] | 0.147 |
| STYRRRLFVENDS [T3Y] | 0.554 |
| STTRVRLFVENDS [R5V] | -0.055 |
| STTRRRLFCENDS [V9C] | 0.414 |
| STTRKRLLVENDS [R5K F8L] | -0.116 |
| STTRRRLFSENDS [V9S] | 0.0161 |
| STTRRILFVENDS [R6I] | 0.532 |
| STTRRRLHVENDS [F8H] | -0.184 |
| STTRRRLFVENMS [D12M] | -0.0422 |
| STTRRRSFVENDS [L7S] | 0.215 |
| STTRRRLFMENDS [V9M] | 0.368 |
| STLRRRLFVENDS [T3L] | 0.149 |
| STTRRRMFVENDS [L7M] | -0.00697 |
| STKRRRLFVENDS [T3K] | 0.154 |
| STMRRRLFVENDS [T3M] | 0.447 |
| STTFRRLFVENDS [R4F] | 0.551 |
| STTRRRLFVENVS [D12V] | -0.0767 |

A few entries again (set 5):
| Change | normalised enrichment score |
| --- | --- |
| STTRRRSFVENDS [L7S] | 0.215 |
| STTRKRLLVENDS [R5K F8L] | -0.116 |
| STTRRRLFVENVS [D12V] | -0.0767 |
| STMRRRLFVENDS [T3M] | 0.447 |
| STTRRRLFCENDS [V9C] | 0.414 |
